Measured values gathered from unrelated publications.
Each numbered part is a random draw from the data of one study; scales do not carry over between parts.

Set 1
Target: Sal-like protein 4, full length isoform A (SALL4, Homo sapiens, UniProt Q9UJQ4, residues 1-1053)
Sequence of UniProt Q9UJQ4 (whole entry, looked up): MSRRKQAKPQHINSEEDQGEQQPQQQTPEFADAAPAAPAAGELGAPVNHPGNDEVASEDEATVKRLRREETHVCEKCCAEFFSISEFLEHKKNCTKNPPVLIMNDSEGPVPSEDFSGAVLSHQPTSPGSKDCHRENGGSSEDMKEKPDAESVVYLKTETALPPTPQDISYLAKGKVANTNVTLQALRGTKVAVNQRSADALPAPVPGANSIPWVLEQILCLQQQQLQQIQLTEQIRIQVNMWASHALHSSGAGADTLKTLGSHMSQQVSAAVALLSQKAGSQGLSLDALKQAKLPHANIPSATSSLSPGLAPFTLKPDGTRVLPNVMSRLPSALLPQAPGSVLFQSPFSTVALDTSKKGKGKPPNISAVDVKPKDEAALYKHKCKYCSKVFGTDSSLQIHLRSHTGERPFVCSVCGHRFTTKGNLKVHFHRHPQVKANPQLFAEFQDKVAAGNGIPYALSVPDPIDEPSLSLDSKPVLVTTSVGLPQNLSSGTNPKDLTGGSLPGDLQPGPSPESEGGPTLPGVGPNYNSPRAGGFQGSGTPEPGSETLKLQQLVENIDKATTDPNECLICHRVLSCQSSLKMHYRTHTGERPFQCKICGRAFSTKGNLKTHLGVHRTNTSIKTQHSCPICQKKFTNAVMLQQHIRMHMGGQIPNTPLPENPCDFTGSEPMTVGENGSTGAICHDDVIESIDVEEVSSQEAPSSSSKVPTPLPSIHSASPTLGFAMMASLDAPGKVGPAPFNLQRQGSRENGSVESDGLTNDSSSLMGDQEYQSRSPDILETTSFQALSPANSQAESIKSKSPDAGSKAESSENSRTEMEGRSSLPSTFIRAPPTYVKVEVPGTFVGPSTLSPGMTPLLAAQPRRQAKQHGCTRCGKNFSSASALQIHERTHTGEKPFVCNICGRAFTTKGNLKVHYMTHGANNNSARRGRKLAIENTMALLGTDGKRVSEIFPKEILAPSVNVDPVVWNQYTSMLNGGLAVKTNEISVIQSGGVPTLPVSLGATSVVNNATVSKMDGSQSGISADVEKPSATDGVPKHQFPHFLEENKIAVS
Technique: universal PBM
Form: double-stranded DNA, one strand shown
Sample: in vitro
Tested at: 600 nM
Notes: 8-mer, flanks averaged, mean of replicates
Reading: higher = stronger binding
| Sequence | E-score |
| --- | --- |
| AGAGGAAC | -0.0763 |
| ATGATCCG | -0.0136 |
| GCATAGGC | 0.0444 |
| AACTTTTC | 0.119 |
| AAGTGTCG | -0.016 |
| GGGGCGCA | -0.29 |
| CAATTCTC | 0.104 |
| CCGCTACC | -0.215 |
| CAATTATG | 0.358 |
| AAACGACG | 0.102 |
| AACGATGC | -0.0757 |
| ATGTACTA | 0.116 |
| CGACAGAA | -0.00304 |
| GCGTCATA | 0.192 |
| CCGCTGTC | -0.279 |
| GTCTCCAA | 0.102 |
| CACAGTAC | 0.0221 |
| TCGGGACA | -0.168 |

Set 2
Target: RNA binding protein fox-1 homolog 2, RRM domain, GST-SBP tag (RBFOX2, Homo sapiens, UniProt O43251-10, residues 100-194)
Technique: RNA Bind-n-Seq
Form: RNA
Sample: in vitro
Tested at: 365 nM
Notes: natural RNA segment, single round, ends assumed
Baseline: no-protein control
Reading: higher = stronger binding
Constant ends, left off below: GGGAGUUCUACAGUCCGACGAUC … UGGAAUUCUCGGGUGCCAA
Construct (chain): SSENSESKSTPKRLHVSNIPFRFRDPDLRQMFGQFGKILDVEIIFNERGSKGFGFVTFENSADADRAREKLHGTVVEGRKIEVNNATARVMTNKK
| Sequence | RBNS enrichment (R) |
| --- | --- |
| AGCGAGGAGAUGCUCCUUGGGCCCUUUGAGUGCAGUCCUGAUCAGAGCCGUGGUCCUUUGGGGUGAACUACCUUGGUUCCCCCACUGAUCACAAAAACAUGGUGGGUCCA | 0.43 |
| UCAGAAGAGUAUCUUCAGUAAGAGGAGAGUAACUUUUUUUUUGCUGCUCCCGCUAUAUCCCAGGCCUCACCCUUUUCUGAUCAUUAUCAGAAAGAAUCCCCUGAACUUUU | 0.304 |
| GUUAUAGAUUUCCUACCUAACCGGGAUGAUGAUGCACAGAACUCUAAAGCCAGUAGUGUGGCAACAGAAUAGCACAGUAUAACUCAGUUGAGACAUGACUUCAAGACUCG | 0.508 |
| UUGUUUUACUUUUGUAGCAUAAGGUUUUUGCUUUUGCUUUGCCUUAAGAGUUCCCUAGGGAGUUACCAGGGCUUUUCGUUUUGUGUAGCUUUUGCAGCAUGGAUCAAACA | 1.76 |
| UUGUUACAGGCUGUGCAGUGCAACAAUUCCAGCAAAAAUACCCUAUCCCCGCACUUAGUCAUUCGUGGUAACUAACAAUUUUGAAAUACUCAUAUAAAAUGAACAGGAAA | 0.673 |
| AAGAUCACACCACUGCACUCCAGCCUGGGCGACAGAGGGAGACACUGUCUCCAAAAGAAAGAAAUCCCAGCGUAGAUCCAAACUGAGACACUGAGGCUUCGUCCUUAUAG | 0.179 |
| AACAUUAUUUUUAUUUUGACUUUUUUUCAAACAGUAAGAAUAAUAUAUCAGCAGCAUGUAUCUGCCAUCAUAUGUAAUAAAUUUCUUAUUUUGCCAAAACCACUUCAGAU | 2.89 |
| GAGUUCAUAGAGAACACCAGCACUCUUUGACAAAACUGUGAGUGACCCUUUUUAAACAAUGCUGAGCAGGCCCUGAGCUAUAAUCAACGGUGAGCUUUAAUGUCUAUGCU | 0.444 |

Set 3
Target: RING finger protein unkempt homolog, zinc fingers 1-6, GST-SBP tag (UNK, Homo sapiens, UniProt Q9C0B0, residues 30-357)
Sequence of UniProt Q9C0B0 (30-357, looked up): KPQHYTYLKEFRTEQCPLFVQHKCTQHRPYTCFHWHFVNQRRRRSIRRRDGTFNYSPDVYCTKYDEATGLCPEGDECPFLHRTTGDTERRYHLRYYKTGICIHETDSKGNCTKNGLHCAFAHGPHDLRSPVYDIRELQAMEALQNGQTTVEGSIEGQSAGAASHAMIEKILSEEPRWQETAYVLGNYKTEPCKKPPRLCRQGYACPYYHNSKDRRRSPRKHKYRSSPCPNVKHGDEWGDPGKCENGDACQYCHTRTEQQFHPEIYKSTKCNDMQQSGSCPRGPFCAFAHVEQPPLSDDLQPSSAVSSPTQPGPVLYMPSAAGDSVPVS
Technique: RNA Bind-n-Seq
Form: RNA
Sample: in vitro
Tested at: not given
Notes: RNA with constant flanks, human and mouse sites, ends assumed
Baseline: input RNA pool
Reading: higher = stronger binding
Constant ends, left off below: GGGAGUUCUACAGUCCGACGAUC … CAACAGAGGAUUGAGCAUCA
| Sequence | bound/input enrichment [ratio] |
| --- | --- |
| UUUGUAACUUAUCUGUAAAAGGUUUCUCCCUACUGUCAAAAAAAUAUGCAUGUAUAGUAAUUAGGACUUCAUUCCUCCAUGUUUUCUUCCCUUAUCUUACUGUCAUUGUCCUAAAACCUU | 1.71 |
| GCCAGAGAAAACAAGUUCAUAGUUCGUGACUUCCAGUAUAACGAGGAGGAGAUGAAAGCAGAUAAAGAAGAAAUGACCAGGCUGUCUACUGACAAGAAGAAGCAGUUUGGACCACUUGUG | 0.357 |
| AGUCCUGACUGCUUGGGACAUGCAGGACUUGUAUAUGAGUAUACAUUGGGAGAAGAGAAGUUUACCUUUAUUGAGAAAUGUAACAACCCUCGUUCUGUCACAUUAUUGAUCAAAGGACCA | 0.326 |
| UUGAAACCUUUGGAUAGGGGAAAAAUUAUAUAUAUAUAUAUUUUUUUGUUCUGUUUGCAUUUCUUAAUUUGUGCUUGGAAUGUGUUGAUGUGCACAGCUAAUGAUUCAAUGCGAGACAAG | 0.554 |
| AAGGAUGCUUUCGAUAAAGGUUCACUUUUUGGAGGCUCUGUAAAACUGGCUCUUGCAAGCUUAGGAUAUGAAAAGAGCUGUGUGUUGUUCAAUUGUGCAGCCUUAGCUAGCCAAAUUGCA | 0.627 |
| AGCAAAACCAGAGCAUCCUUAAAGUGCAGGAAGUCUUUGCCGUCGUUGUUAAGCAUGUGUUUUAGUCAGGUCAGAAACAUCAGGUACCACAGCUCCCCAGCACUCUCUUGAGGCUAGAAA | 0.2 |
| AUAUUUCAUAUUGCAAAGAUGUUUACAAGUAUUUUAAUUUAAGUUCAGUGAACUUUUUUGUAGCUGGGUUAAAUCUUUUUAUUUUUAGUAUGGCCUUAUGGCAAAGAACACUGUAUUAUU | 2.94 |
| GAGAAAGGAGAGAUGCAGGUUGUCCCAGUUUUGGUGCAUCUCCUGUCUGCUAUCAGCAGUGUUAGGCUUUACAUUCCUAAAGACCUUCGGCCGGUGGACAAUAGACAGAGUGUUUUAAAA | 0.42 |

Set 4
Target: Centromere-binding protein 1, full length, His-tagged (CBF1, Saccharomyces cerevisiae, UniProt P17106, residues 1-351)
Sequence of UniProt P17106 (whole entry, looked up): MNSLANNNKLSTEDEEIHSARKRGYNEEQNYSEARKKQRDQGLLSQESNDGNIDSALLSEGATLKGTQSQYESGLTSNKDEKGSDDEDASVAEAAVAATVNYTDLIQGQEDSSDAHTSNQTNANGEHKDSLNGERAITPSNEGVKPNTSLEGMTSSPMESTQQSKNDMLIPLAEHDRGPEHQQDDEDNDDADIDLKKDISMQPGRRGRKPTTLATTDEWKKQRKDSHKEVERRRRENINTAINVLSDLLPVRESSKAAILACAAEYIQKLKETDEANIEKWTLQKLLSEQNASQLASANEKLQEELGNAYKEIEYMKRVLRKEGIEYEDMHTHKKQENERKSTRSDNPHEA
Technique: competition protein-binding microarray
Form: double-stranded DNA, one strand shown
Sample: in vitro
Tested at: 2 µM
Notes: whole 60-bp probe, lowest competitor level
Added: Pho4 competitor, 0.05 µM
Reading: higher = stronger binding
Constant ends, left off below: … GTCTTGATTCGCTTGACGCTGCTG
| Sequence | fluorescence intensity [a.u.] |
| --- | --- |
| AAGTTTGCTGCCCTTCATGTGCTTTTATGTATGCTT | 74.9 |
| ATGGATATATATGGACACGGGACATTATAACAACTT | 469 |
| AAAGCGGTAATTTTTCACGTGTTATCAAATATCTAT | 1480 |
| CTTCTGTAAATTTGGCGTGTGGGTGGACGCGCCCCG | 84.2 |
| TTTTTCCTCTCTGGCCAGGTGACGTTCTGAATTTTT | 146 |
| ACCCCATTATCTGGAGGCGTGCCGACAGCTCCGTTG | 75.3 |
| CAAGGGCGCCCCGGCCACGTGGAATAATACTGACTT | 604 |
| AGACTGAAAGTTTTGCATGATCAATTTCTCTCATTG | 81.1 |
| CCCCTATACATGGGGTACGTGCCAGTATTTTGAGGG | 115 |
| CGTCCTAGTGATTGGGTAGTGGGTGCCATGAGGAAG | 84.1 |
| CGTTTTTTTTCCCGACACGTGTCGGAGAAGAGTTTG | 1900 |
| GTCTTGTCTCATTGTCACAGTACTTTCCCCACTTCA | 96.3 |
| AACGGTGCCGGCCGTCACGCTAACGTTTCCACCAAG | 78 |
| CAGTTTTTAAAATATCACAATTCAGGCGGGTTGCCA | 89.7 |
| CTAACGAAGGTTTGCACGGTGGGTGACAAGCCAAGT | 68.8 |
| ATCCCTGTCGTTACGGTCGTGCCAGTTACACTGGGA | 74.5 |

For quick reference, copied from above (set 1):
| Sequence | E-score |
| --- | --- |
| AAGTGTCG | -0.016 |
| GGGGCGCA | -0.29 |
| CAATTCTC | 0.104 |
| CCGCTACC | -0.215 |
| CAATTATG | 0.358 |
| AAACGACG | 0.102 |
